Published values gathered from unrelated publications.
Protocols differ between the studies behind these lines. ± gives the spread as reported.

With COc1cc2c3c(n(CCCNCCO)c(=O)c2cc1OC)-c1nc2c(cc1C3=O)OCO2 the AUC extrapolated was 2.61% (male CD1 mouse, plasma; intravenous, 1 mg/kg).
The AUC of COc1ccc(Cl)cc1S(=O)(=O)Nc1cncc(C(N)=O)c1 is reported as over 800000 ng·h/mL (mouse, plasma; oral, 10 mg/kg).
CS(=O)(=O)CCNCc1ccc(-c2ccc3ncnc(Nc4ccc(OCc5cccc(F)c5)c(Cl)c4)c3c2)o1 gave an AUC of 39900 ng·h/mL (female FVB mouse, plasma; intraperitoneal, 60 mg/kg every 3 h ×5, extrapolated to steady state).
CCc1cc(OC)c2nccc(N3CCc4c(cc(Cn5ccnc5)cc4-c4cn(C)nc4C(F)(F)F)C3=O)c2c1 gave an AUC extrapolated of 0.1% (CD-1 mouse, male, plasma; intravenous, 3 mg/kg).
COc1cc2c3c(n(CCCNC(C)C)c(=O)c2cc1OC)-c1nc2c(cc1C3=O)OCO2 has an AUC extrapolated of 8.61% (male CD1 mouse, plasma; oral, 10 mg/kg).
The AUC extrapolated of CN(C)C(=O)c1cc2cnc(Nc3ccc(-c4ccc5c(=O)cc(N6CCOCC6)oc5c4)cc3)nc2n1C1CCCC1 is reported as 0.5 ± 0.2% (BALB/c mouse, plasma; oral, 20 mg/kg).
CNC(=O)c1cc(OC)cc2c(N3CCc4c(cc(Cn5ccnc5)cc4-c4cn(C)nc4C(F)(F)F)C3=O)ccnc12 gave an AUC extrapolated of 0.3% (CD-1 mouse, male, plasma; oral, 50 mg/kg).
CCNCCCn1c2c(c3cc(OC)c(OC)cc3c1=O)C(=O)c1cc3c(nc1-2)OCO3 has an AUC extrapolated of 8.98% (male CD1 mouse, plasma; intravenous, 1 mg/kg).
COc1ccc2nccc(N3CCc4c(cc(Cn5ccnc5)cc4-c4cn(C)nc4C(F)(F)F)C3=O)c2c1 gave an AUC extrapolated of 0.3% (CD-1 mouse, male, plasma; intravenous, 3 mg/kg).
COc1ccc2c3c([nH]c2c1)[C@H](CC(C)C)N1C(=O)[C@H](CCC(=O)NC(C)(C)C)NC(=O)[C@@H]1C3: AUC “increased” (UPLC-QTOFMS; wild-type mouse, serum; oral, 50 mg/kg).
CO[C@H]1/C=C/O[C@@]2(C)Oc3c(C)c(O)c4c(c3C2=O)C2=NC3(CCN(CC(C)C)CC3)NC2=C(NC(=O)/C(C)=C\C=C\[C@H](C)[C@H](O)[C@@H](C)[C@@H](O)[C@@H](C)[C@H](OC(C)=O)[C@@H]1C)C4=O has an AUC of 21500 ng·h/mL (CD-1 mouse, plasma; oral, 12.5 mg/kg, efficacy dose).
CCc1cc(C(=O)NC)c2nccc(N3CCc4c(cc(Cn5ccnc5)cc4-c4cn(C)nc4C(F)(F)F)C3=O)c2c1 gave an AUC extrapolated of 0% (CD-1 mouse, male, plasma; oral, 150 mg/kg).
For COc1ccc2c3c([nH]c2c1)[C@H](CC(C)C)N1C(=O)[C@H](CC(=O)NC(C)C)NC(=O)[C@@H]1C3, the AUC was 147 µM·h (wild-type male mouse, serum; oral, 100 mg/kg).

For quick reference, copied from above:
The AUC extrapolated of CN(C)C(=O)c1cc2cnc(Nc3ccc(-c4ccc5c(=O)cc(N6CCOCC6)oc5c4)cc3)nc2n1C1CCCC1 is reported as 0.5 ± 0.2% (BALB/c mouse, plasma; oral, 20 mg/kg).
